# Measurements collected from several papers.
# Protocols differ between the studies behind these lines. ± marks the error that the study gave.
# uncharacterized protein: uncharacterized protein (Bos taurus, UniProt E1BM68)
# Chain of UniProt P23204 (whole entry, looked up): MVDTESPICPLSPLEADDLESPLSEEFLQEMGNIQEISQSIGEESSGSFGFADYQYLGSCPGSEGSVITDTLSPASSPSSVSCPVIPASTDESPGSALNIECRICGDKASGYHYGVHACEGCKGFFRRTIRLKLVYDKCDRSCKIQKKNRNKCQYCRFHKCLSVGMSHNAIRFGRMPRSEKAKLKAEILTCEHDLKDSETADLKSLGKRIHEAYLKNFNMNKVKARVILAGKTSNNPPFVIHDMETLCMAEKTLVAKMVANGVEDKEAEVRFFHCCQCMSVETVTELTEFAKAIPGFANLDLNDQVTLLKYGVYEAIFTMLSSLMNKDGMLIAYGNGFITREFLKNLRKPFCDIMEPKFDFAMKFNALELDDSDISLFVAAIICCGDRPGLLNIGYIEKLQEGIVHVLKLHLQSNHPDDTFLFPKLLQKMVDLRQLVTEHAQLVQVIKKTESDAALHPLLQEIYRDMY
# Chain of UniProt Q8N884 (whole entry, looked up): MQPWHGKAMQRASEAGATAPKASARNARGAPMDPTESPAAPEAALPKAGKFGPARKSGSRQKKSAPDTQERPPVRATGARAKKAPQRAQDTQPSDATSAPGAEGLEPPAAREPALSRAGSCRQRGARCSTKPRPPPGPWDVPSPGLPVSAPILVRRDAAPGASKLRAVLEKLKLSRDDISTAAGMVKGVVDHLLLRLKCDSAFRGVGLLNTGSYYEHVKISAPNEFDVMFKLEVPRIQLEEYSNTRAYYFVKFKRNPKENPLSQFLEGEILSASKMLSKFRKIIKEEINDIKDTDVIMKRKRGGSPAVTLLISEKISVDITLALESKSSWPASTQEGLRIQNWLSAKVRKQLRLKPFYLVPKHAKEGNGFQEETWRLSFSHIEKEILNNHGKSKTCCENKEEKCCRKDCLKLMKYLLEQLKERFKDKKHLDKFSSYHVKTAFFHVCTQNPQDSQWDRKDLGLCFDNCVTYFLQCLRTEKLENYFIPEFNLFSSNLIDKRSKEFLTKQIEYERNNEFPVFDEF
# Chain of UniProt Q9BQB4 (whole entry, looked up): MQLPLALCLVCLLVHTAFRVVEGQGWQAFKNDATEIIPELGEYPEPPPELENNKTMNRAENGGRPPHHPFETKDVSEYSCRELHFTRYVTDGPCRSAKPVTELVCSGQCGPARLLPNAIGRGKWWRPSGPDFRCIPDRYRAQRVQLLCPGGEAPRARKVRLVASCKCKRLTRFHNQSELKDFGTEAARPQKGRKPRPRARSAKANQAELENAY
# Chain of UniProt P30191 (whole entry, looked up): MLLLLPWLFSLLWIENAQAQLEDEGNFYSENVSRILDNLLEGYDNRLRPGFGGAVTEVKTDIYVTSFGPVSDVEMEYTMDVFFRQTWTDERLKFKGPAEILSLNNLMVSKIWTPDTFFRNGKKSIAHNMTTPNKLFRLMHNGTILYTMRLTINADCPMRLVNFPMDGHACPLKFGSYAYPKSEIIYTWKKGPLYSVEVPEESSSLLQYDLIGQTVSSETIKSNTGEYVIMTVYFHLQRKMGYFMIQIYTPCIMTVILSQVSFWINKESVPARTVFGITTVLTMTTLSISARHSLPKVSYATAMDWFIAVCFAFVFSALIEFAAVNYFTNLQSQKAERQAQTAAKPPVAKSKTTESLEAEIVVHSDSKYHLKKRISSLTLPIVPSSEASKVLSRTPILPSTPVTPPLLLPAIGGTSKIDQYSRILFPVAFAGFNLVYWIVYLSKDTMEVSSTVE
# Chain of UniProt P25929 (whole entry, looked up): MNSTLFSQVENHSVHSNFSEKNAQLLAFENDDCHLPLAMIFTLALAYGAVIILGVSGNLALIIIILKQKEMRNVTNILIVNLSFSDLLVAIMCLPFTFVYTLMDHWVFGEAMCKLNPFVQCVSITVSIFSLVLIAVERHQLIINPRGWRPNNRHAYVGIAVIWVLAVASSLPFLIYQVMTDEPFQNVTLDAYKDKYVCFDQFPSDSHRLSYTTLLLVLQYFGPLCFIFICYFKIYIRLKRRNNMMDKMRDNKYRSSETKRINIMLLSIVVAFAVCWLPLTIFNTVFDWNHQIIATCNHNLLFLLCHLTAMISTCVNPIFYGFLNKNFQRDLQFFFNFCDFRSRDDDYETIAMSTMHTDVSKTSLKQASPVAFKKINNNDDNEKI
# Chain of UniProt P51582 (whole entry, looked up): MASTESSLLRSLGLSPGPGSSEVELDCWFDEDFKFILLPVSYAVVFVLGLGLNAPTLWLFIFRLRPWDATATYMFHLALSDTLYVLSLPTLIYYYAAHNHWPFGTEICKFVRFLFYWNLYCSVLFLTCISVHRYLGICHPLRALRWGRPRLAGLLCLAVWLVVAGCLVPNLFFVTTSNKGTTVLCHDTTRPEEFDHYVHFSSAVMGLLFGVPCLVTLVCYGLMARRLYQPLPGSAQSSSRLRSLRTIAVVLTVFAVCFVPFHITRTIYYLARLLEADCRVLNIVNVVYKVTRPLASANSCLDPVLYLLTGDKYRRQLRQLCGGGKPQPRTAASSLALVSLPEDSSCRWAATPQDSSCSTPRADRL
# Chain of UniProt Q08499 (whole entry, looked up): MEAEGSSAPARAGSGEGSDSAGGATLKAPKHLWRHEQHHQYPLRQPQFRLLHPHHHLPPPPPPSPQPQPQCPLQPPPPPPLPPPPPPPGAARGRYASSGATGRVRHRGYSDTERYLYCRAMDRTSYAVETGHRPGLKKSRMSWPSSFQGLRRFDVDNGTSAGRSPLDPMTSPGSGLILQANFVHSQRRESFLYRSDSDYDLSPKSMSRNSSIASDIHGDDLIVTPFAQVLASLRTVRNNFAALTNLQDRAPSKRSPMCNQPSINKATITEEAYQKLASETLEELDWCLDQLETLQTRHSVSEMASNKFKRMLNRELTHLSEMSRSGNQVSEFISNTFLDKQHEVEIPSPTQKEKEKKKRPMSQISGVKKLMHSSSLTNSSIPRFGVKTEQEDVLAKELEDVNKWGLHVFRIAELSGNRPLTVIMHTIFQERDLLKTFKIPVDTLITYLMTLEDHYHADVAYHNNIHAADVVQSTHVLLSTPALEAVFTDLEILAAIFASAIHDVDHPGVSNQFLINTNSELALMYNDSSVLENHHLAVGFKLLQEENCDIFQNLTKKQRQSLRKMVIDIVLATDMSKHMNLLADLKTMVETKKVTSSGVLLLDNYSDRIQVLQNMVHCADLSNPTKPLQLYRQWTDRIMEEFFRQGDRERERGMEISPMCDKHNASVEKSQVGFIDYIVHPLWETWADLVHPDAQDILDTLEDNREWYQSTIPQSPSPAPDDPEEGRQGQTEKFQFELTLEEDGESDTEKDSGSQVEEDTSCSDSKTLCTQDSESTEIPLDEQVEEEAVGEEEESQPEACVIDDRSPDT
# Chain of UniProt P63079 (whole entry, looked up): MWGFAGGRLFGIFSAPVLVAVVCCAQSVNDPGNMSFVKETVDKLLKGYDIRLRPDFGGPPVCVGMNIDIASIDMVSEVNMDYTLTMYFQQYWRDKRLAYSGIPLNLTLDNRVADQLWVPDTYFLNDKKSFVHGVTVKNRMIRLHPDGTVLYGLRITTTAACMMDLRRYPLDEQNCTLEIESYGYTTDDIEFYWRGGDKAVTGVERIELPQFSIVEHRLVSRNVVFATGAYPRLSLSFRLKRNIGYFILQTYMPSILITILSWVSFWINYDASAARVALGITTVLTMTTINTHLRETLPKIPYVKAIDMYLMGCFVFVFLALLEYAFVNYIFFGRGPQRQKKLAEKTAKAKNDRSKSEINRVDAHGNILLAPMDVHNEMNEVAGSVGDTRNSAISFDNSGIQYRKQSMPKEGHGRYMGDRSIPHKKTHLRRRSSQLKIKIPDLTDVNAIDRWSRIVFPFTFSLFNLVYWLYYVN
SMILES,target,test,system,setting,EC50
CO[C@H]1O[C@H](COS(=O)(=O)O)[C@@H](O[C@@H]2O[C@@H](C(=O)O)[C@@H](O[C@H]3O[C@H](COS(=O)(=O)O)[C@@H](O[C@@H]4O[C@H](C(=O)O)[C@@H](O[C@H]5O[C@H](COS(=O)(=O)O)[C@@H](O)[C@H](O)[C@H]5NS(=O)(=O)O)[C@H](O)[C@H]4O)[C@H](OS(=O)(=O)O)[C@H]3NS(=O)(=O)O)[C@H](O)[C@H]2OS(=O)(=O)O)[C@H](O)[C@H]1NS(=O)(=O)O,"Sclerostin (SOST, Homo sapiens, UniProt Q9BQB4)",fluorescence polarization competition,,with: TAMRA-labelled probe,159 ± 26.1 µM
CCc1c(C)nc(-c2ccc(Cl)s2)nc1Nc1ccc(CC(=O)O)cc1,"3',5'-cyclic-AMP phosphodiesterase 4D (PDE4D, Homo sapiens, UniProt Q08499)","reporter gene, dual luciferase",,,25.9 ± 4.62 µM
CSc1ccc(C(=O)/C=C/c2cc(C)c(OC(C)(C)C(=O)O)c(C)c2)cc1,"Peroxisome proliferator-activated receptor delta (Rattus norvegicus, UniProt Q62879)","reporter gene, agonist, luciferase reporter",rat,serum-free,1.4 µM
CCc1cnc(C)c(C)n1,"Olfactory receptor (Mus musculus, UniProt Q8VGQ8)","cAMP, agonist",HEK293 transfected with Olfactory receptor,,334 ± 50.7 µM
O=c1ccn([C@@H]2O[C@H](COP(=O)(O)OP(=O)(O)OP(=O)(O)O)[C@@H](O)[C@H]2O)c(=O)[nH]1,"P2Y purinoceptor 4 (P2RY4, Homo sapiens, UniProt P51582)","agonist, cell-based",,,0.396 µM
CCc1nccnc1OC,uncharacterized protein,"cAMP level, agonist, cAMP luminescence",HEK293 cells,,292 ± 146 µM
CC[C@H](C)[C@H](NC(=O)[C@H](Cc1ccccc1)NC(=O)[C@H](CCC(=O)O)NC(=O)[C@H](CCCNC(=N)N)NC(=O)[C@H](C)NC(=O)[C@H](C)NC(=O)[C@H](CCC(N)=O)NC(=O)[C@H](CCC(=O)O)NC(=O)[C@H](CCC(=O)O)NC(=O)[C@H](CC(C)C)NC(=O)[C@H](Cc1ccc(O)cc1)NC(=O)[C@H](CO)NC(=O)[C@H](CO)NC(=O)[C@@H](NC(=O)[C@H](CC(=O)O)NC(=O)[C@H](CO)NC(=O)[C@@H](NC(=O)[C@H](Cc1ccccc1)NC(=O)[C@@H](NC(=O)CNC(=O)[C@H](CCC(=O)O)NC(=O)[C@H](C)NC(=O)CCc1c[nH]cn1)[C@@H](C)O)[C@@H](C)O)C(C)C)C(=O)N[C@@H](C)C(=O)N[C@@H](Cc1c[nH]c2ccccc12)C(=O)N[C@@H](CC(C)C)C(=O)N[C@H](C(=O)N[C@@H](CCCNC(=N)N)C(=O)NCC(=O)N[C@@H](CCCNC(=N)N)C(=O)N[C@@H](CCCCNC(=O)COCCOCCNC(=O)COCCOCCNC(=O)CC[C@H](NC(=O)CCCCCCCCCCCCCCCCC(=O)O)C(=O)O)C(=O)O)C(C)C,"Glucagon-like peptide 1 receptor (GLP1R, Homo sapiens, UniProt P43220)","cAMP reporter gene, agonist, CRE luciferase",BHK,"without Zr, 1% HSA",8.4e-05 µM
COc1cccc(-n2nc3c4cc(Cl)ccc4[nH]cc-3c2=O)c1,"Gamma-aminobutyric acid receptor subunit alpha-6/beta-3, with delta subunit (Gabra6/Gabrb3, Rattus norvegicus, UniProt P30191+P63079)","GABA-evoked current, two-electrode voltage clamp",,"α6β3δ receptor, with: GABA EC3-10",7.7 µM
Cc1nccnc1C,uncharacterized protein,"cAMP level, agonist, cAMP luminescence",HEK293 cells,,> 1500 µM
Cc1nn(-c2nc3ccccc3[nH]2)c(O)c1C(c1ccccn1)c1c(C)nn(-c2nc3ccccc3[nH]2)c1O,"Cyclic GMP-AMP synthase, catalytic domain; with DNA (CGAS, Homo sapiens, UniProt Q8N884)",cGAS-DNA condensate disruption,,"concentration not given, with: Cy3-labelled DNA",7.4 ± 0.9 µM
CCOC(=O)c1cnc2c(c(C)nn2-c2ccc(Cl)cc2)c1NCc1ccc(OC)cc1,"Neuropeptide Y receptor type 1 (NPY1R, Homo sapiens, UniProt P25929)","cAMP accumulation, agonist",SK-N-MC,,16 µM
CCO[C@@H](Cc1ccc(OCCn2c(C)ccc2-c2ccc(SC)cc2)cc1)C(=O)O,"Peroxisome proliferator-activated receptor alpha (Ppara, Mus musculus, UniProt P23204)","receptor activation, agonist, luciferase reporter",,"serum-free, species mouse",0.4 µM
C=CCc1ccc(OC)c(OC)c1,uncharacterized protein,"cAMP level, agonist, cAMP luminescence",HEK293 cells,,32.8 ± 2.77 µM

# Some of these lines once more:
SMILES,target,test,system,setting,EC50
CCc1nccnc1OC,uncharacterized protein,"cAMP level, agonist, cAMP luminescence",HEK293 cells,,292 ± 146 µM
CCOC(=O)c1cnc2c(c(C)nn2-c2ccc(Cl)cc2)c1NCc1ccc(OC)cc1,"Neuropeptide Y receptor type 1 (NPY1R, Homo sapiens, UniProt P25929)","cAMP accumulation, agonist",SK-N-MC,,16 µM
